Published values collected from several papers.
Numbered parts are unrelated; each lists some results of a single study. “And” joins repeats or separate records; there may be more than shown.
Sequence of UniProt P51812 (whole entry, looked up): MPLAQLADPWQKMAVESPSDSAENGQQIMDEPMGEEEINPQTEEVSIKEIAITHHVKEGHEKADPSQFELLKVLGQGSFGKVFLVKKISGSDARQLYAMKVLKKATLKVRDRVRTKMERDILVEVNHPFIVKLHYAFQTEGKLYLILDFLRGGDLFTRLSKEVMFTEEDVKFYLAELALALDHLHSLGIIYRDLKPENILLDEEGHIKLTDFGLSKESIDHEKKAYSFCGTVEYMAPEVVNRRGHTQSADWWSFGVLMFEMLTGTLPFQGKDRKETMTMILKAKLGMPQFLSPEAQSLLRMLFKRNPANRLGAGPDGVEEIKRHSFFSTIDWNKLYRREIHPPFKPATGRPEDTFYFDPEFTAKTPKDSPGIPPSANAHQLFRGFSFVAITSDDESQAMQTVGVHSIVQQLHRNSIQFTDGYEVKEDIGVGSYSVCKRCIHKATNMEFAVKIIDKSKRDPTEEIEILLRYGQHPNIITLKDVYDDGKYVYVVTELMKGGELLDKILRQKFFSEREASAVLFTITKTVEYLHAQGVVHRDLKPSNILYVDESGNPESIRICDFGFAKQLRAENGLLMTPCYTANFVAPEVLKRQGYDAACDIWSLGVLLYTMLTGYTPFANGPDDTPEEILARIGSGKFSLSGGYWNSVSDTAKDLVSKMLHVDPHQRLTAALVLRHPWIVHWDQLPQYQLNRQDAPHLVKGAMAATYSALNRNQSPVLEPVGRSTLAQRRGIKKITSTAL
Sequence of UniProt Q9BUB5 (whole entry, looked up): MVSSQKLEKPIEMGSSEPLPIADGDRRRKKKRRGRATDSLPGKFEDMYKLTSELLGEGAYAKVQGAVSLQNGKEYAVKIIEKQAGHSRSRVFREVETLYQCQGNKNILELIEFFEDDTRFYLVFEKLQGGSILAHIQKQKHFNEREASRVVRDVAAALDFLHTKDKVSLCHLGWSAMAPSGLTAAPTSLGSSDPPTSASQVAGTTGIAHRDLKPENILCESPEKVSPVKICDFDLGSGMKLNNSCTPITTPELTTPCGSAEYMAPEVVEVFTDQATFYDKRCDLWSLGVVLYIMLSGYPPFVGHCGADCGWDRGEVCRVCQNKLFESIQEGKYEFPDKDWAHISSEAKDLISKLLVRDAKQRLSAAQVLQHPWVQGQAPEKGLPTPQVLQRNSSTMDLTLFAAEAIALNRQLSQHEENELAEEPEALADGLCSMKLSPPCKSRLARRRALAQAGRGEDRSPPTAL
Sequence of UniProt P17948 (whole entry, looked up): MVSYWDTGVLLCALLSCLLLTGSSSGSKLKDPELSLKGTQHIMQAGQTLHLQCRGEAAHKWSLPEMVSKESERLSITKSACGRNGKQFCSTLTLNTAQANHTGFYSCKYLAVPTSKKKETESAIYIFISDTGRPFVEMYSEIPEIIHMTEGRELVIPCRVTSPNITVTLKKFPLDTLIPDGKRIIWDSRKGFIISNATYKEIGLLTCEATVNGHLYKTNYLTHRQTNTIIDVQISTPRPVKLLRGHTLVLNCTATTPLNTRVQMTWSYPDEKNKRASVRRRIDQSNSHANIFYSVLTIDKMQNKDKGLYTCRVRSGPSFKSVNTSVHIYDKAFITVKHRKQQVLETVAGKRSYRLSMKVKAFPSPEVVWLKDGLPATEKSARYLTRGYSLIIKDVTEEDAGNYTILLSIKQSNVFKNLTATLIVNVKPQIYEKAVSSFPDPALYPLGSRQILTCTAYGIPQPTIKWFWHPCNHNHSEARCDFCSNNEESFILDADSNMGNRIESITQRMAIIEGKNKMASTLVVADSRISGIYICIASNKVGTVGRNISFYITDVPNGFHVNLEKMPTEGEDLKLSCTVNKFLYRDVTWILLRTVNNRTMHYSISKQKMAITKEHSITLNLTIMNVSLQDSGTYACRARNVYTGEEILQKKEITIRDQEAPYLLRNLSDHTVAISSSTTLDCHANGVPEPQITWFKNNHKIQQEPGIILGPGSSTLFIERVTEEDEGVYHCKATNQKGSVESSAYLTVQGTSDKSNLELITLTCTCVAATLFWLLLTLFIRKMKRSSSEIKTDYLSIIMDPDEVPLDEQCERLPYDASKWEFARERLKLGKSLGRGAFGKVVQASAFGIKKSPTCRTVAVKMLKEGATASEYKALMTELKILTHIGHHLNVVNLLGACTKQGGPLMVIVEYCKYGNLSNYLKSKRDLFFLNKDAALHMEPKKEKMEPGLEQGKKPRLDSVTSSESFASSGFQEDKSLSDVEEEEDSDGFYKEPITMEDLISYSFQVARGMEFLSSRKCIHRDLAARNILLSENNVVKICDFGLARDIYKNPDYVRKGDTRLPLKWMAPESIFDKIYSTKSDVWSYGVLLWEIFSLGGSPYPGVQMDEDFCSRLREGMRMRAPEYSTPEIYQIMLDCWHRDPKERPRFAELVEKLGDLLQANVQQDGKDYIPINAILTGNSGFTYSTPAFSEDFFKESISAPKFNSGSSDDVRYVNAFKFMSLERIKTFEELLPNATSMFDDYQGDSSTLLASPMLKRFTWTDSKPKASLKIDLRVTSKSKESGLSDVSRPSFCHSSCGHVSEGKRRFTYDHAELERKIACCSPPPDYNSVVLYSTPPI

Study 1 — Structure (SMILES): Nc1ncnc2n[nH]c(Nc3ccc(F)cc3)c12; effect on: enzyme activity; mode: inhibitor; tested at: 0.5 µM; reference: control
target	remaining activity
SRPK1 (Homo sapiens, UniProt Q96SB4)	104%
Cyclin-dependent kinase 2, with cyclin E (CDK2, Homo sapiens, UniProt P24941)	90.3%
PRKCQ (Homo sapiens, UniProt Q04759)	103%
SGK2 (Homo sapiens, UniProt Q9HBY8)	96.5%
RPS6KA3 (Homo sapiens, UniProt P51812)	89.8%
SIK2 (Homo sapiens, UniProt Q9H0K1)	78.7%
EPHA6 (Homo sapiens, UniProt Q9UF33)	49.3%
CLK1 (Homo sapiens, UniProt P49759)	102%
IGF1R (Homo sapiens, UniProt P08069)	104%
PAK6 (Homo sapiens, UniProt Q9NQU5)	109%
CSNK1E (Homo sapiens, UniProt P49674)	80.5%
JAK1 (Homo sapiens, UniProt P23458)	99%
MAP3K20 (Homo sapiens, UniProt Q9NYL2)	88%
TEC (Homo sapiens, UniProt P42680)	86%
CSNK1D (Homo sapiens, UniProt P48730)	67.7%
EPHA2 (Homo sapiens, UniProt P29317)	89.9%
CLK2 (Homo sapiens, UniProt P49760)	92.4%
PRKCZ (Homo sapiens, UniProt Q05513)	109%
PAK1 (Homo sapiens, UniProt Q13153)	95.2%
MUSK (Homo sapiens, UniProt O15146)	93.9%
FLT1 (Homo sapiens, UniProt P17948)	87.3%
CAMK1 (Homo sapiens, UniProt Q14012)	103%
CAMKK1 (Homo sapiens, UniProt Q8N5S9)	101%
TYRO3 (Homo sapiens, UniProt Q06418)	100%

Study 2 — effect on: cell-free assay; technique: competition with immobilised ligand; tested at: 1 µM
Compound: O=C(Nc1cnc(Oc2ccc(F)cc2)nc1)N1CCc2ncccc2[C@@H]1c1ccc(F)cc1
target	remaining binding [%]
FLT3 (Homo sapiens, UniProt P36888, D835Y)	100
MAPKAPK5 (Homo sapiens, UniProt Q8IW41)	91
Cyclin-dependent kinase 4, with cyclin D3 (CDK4, Homo sapiens, UniProt P11802)	100
ALK (Homo sapiens, UniProt Q9UM73, C1156Y)	90
Aurora kinase B (AURKB, Homo sapiens, UniProt Q96GD4)	80
PIK3C3 (Homo sapiens, UniProt Q8NEB9)	100
Ribosomal protein S6 kinase alpha-3, C-terminal kinase domain (RPS6KA3, Homo sapiens, UniProt P51812)	91
MKNK1 (Homo sapiens, UniProt Q9BUB5)	95

Study 3 — host: mouse; matrix: microsomes or S9; tested at: 2 µM; time: 0.5 h
SMILES	remaining compound
O=S(=O)(/C(=C(\F)Oc1ccccc1)c1ccccc1)c1ccccc1	> 100%
Cc1cn2c(CNc3ncnc4c3cnn4C)c(C)nc2s1	0.127%
CN(C(=O)CN1CCC(NC(=O)C2CCCCC2)CC1)C1CCCCC1	0.555%
CON(C)c1nc(OCCNC(=O)OCc2ccc(Cl)cc2C)nc(N(C)C)n1	1.74%
COc1cc2c(c(Br)c1OC)CN(c1cc(C(=O)O)ccc1C)C2=O	> 99%
Brc1cc(-c2noc([C@H]3CCCO3)n2)c2ncnn2c1	3.78%
O=C(Cc1ccc(Cl)s1)NC(CO)c1c(F)cccc1F (centres unmarked)	8.92%
CCC1CCCCN1Cc1ccc(CNC(=O)c2noc3c2CCc2sccc2-3)o1 (centres unmarked)	3.5%
O=C(Nc1n[nH]c(Cc2ccc(F)cc2)n1)c1ccn2nnnc2c1	43.3%
Cn1cc(-c2noc(-c3n[nH]c4ccccc34)n2)ccc1=O	42.7%
O=C(Cn1ncc2ccccc2c1=O)NCCn1nc2c(cc1=O)CCCCC2	7.31%

Study 4 — effect on: enzyme activity; mode: inhibitor; tested at: 77 µM; reference: untreated
Target: DNA polymerase theta, ATPase domain (POLQ, Homo sapiens, UniProt O75417)
Sequence of UniProt O75417 (whole entry, unmodified, looked up): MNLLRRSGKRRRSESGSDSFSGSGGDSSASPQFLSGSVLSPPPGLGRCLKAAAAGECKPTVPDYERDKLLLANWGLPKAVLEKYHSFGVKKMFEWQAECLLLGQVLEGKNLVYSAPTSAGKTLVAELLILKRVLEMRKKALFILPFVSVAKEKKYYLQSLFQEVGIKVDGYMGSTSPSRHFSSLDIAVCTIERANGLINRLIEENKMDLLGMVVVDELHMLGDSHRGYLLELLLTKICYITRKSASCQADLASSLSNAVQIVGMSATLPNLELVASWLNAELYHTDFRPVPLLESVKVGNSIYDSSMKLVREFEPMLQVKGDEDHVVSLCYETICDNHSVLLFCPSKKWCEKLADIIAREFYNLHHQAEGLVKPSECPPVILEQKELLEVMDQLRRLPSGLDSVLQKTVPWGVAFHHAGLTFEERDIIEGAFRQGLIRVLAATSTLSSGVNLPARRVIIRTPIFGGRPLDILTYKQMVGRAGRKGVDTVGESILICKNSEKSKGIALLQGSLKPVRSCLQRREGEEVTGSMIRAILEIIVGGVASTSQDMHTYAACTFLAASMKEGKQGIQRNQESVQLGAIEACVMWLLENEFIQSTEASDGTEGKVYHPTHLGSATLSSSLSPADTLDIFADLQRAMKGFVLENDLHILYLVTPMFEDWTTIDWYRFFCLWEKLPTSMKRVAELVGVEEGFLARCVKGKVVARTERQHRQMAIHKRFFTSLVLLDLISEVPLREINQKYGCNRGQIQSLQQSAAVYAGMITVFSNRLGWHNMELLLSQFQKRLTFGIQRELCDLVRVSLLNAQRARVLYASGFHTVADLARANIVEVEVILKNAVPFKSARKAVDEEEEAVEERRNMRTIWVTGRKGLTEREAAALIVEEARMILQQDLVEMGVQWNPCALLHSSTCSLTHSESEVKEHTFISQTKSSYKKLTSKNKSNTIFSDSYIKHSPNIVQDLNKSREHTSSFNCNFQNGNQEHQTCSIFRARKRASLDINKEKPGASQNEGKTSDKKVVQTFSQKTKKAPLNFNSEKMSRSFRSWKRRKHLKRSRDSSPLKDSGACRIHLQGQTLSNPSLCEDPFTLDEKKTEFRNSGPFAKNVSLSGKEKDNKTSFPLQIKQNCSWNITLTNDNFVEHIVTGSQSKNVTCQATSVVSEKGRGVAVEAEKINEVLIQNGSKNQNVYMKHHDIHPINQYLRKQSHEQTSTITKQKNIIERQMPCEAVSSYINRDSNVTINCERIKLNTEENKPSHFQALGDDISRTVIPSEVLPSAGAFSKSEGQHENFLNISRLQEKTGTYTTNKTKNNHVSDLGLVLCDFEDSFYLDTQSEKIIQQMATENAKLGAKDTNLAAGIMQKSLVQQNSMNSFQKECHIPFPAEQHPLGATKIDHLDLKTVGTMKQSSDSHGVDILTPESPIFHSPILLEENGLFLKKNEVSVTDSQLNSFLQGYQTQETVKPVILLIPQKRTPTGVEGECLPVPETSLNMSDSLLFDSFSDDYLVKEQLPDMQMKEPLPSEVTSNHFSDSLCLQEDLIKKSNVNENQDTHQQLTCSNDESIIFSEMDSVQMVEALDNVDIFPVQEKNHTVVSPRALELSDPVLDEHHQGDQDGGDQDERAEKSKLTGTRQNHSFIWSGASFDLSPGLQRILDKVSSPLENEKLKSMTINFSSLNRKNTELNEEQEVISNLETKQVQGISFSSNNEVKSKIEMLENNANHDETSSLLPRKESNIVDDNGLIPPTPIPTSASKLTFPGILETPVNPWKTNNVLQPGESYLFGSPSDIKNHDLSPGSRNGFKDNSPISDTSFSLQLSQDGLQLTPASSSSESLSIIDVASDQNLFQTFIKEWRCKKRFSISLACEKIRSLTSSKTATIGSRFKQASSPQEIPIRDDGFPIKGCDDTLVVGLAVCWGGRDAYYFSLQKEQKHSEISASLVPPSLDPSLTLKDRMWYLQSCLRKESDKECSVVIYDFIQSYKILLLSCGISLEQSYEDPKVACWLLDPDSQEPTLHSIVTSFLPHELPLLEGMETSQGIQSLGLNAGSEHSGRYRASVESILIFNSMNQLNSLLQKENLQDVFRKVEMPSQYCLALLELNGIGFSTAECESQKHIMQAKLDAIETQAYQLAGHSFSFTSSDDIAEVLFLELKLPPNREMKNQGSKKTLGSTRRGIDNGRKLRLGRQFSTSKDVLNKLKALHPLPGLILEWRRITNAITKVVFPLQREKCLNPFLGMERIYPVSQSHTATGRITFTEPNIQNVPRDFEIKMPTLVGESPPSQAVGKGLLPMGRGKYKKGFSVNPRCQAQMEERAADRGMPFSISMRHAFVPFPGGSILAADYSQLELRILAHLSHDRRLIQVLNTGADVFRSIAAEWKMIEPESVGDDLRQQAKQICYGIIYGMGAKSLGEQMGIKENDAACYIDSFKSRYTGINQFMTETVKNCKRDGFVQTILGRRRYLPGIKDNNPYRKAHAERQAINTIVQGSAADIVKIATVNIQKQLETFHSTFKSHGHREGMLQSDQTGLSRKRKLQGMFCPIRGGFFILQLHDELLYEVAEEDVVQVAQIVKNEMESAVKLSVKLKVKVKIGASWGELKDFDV
SMILES	remaining activity
NC(=O)NO	101% and 99.8%
O=C1NC(=O)/C(=C\c2ccc3nccnc3c2)S1	100%
COc1cc2nc(N3CCN(C(=O)c4ccco4)CC3)nc(N)c2cc1OC	102%
c1cc(CN2CCCCC2)cc(OCCCNc2nc3ccccc3s2)c1	103%
COc1cc2c(cc1OC)CC(=O)N(CCCN(C)C[C@H]1Cc3cc(OC)c(OC)cc31)CC2	99%
CCc1c(C)[nH]c2c1C(=O)C(CN1CCOCC1)CC2 (centres unmarked)	89.3%
OCc1ccc(-c2ccc(-c3ccc(CO)s3)o2)s1	102%

Repeated from above (study 2):
target	remaining binding [%]
ALK (Homo sapiens, UniProt Q9UM73, C1156Y)	90
Aurora kinase B (AURKB, Homo sapiens, UniProt Q96GD4)	80
PIK3C3 (Homo sapiens, UniProt Q8NEB9)	100
Ribosomal protein S6 kinase alpha-3, C-terminal kinase domain (RPS6KA3, Homo sapiens, UniProt P51812)	91
MKNK1 (Homo sapiens, UniProt Q9BUB5)	95
